# Results gathered from unrelated publications.
# Each line is one published result; not all experiments were run side by side.
Compound,tested on,assay,system,setting,endpoint,value
CCN(C(=O)c1cc(F)ccc1Oc1nncnc1N1CCC2(C1)CN([C@H](CCCN(C)CCOC)C(C)C)C2)C(C)C,CLS-439,cell growth,,168 h,GI50,> 10 µM
NCC(=O)Nc1ccc(Sc2ccc3c(/C=C/c4ccccn4)n[nH]c3c2)cc1,BaF3,"cell growth or viability, CCK-8",,,GI50,3.39 µM
COc1ncccc1CN(C(=O)OC(c1ccc([N+](=O)[O-])cc1)C(F)(F)F)[C@H]1C[C@@H]1c1ccccc1 (mixture of isomers),THP-1 wild type cells,MTS,,72 h,GI50,> 50 µM
C=CC(=O)Oc1ccc(OC)c(-c2c[nH]c3ncc(-c4cncc(C(=O)N(C)C)c4)cc23)c1,BaF3,cell growth or viability,,,GI50,> 1 µM
COc1cccc(C(=O)Nc2ccc(Sc3ccc4c(/C=C/c5ccccn5)n[nH]c4c3)cc2)c1,BaF3,"cell growth or viability, CCK-8",,,GI50,3.73 µM
O=C(NCCOc1ccc(F)cc1)c1ccc([C@H]2[C@@H](F)[C@@H](F)C[C@@H](F)[C@H]2F)cc1,,liver microsome stability,rat liver microsomes,1 µM,hepatic clearance,26 mL/min/kg
COc1ncccc1CN(C(=O)OCc1ccc([N+](=O)[O-])cc1F)[C@H]1C[C@@H]1c1ccccc1 (racemic),THP-1 wild type cells,MTS,,72 h,GI50,> 50 µM
O=C(CC(=O)Nc1ccc2c(/C=C/c3ccccn3)n[nH]c2c1)Nc1ccc(Cl)c(C(F)(F)F)c1,BaF3,"cell growth or viability, CCK-8",,,GI50,7.4 µM
O=C(CCC(F)(F)F)Nc1ccc([C@H]2[C@@H](F)[C@@H](F)C[C@@H](F)[C@H]2F)cc1,,liver microsome stability,human liver microsomes,"1 µM, without NADPH",hepatic clearance,14 mL/min/kg
COc1ccc(O)cc1-c1c[nH]c2ncc(-c3cncc(C(=O)N(C)C)c3)cc12,BaF3,cell growth or viability,,,GI50,> 1 µM
COc1ncccc1CN(C(=O)OCc1ccc([N+](=O)[O-])cc1F)[C@H]1[C@@H](C)[C@@H]1c1ccccc1 (racemic),THP-1 wild type cells,MTS,,72 h,GI50,> 50 µM
